Measurements of several laboratories.
Parts stem from different laboratories: compare values within a part only.

Set 1
Target: Protein C-ets-1 (ETS1, Homo sapiens, UniProt P14921, residues 1-441, K379A, full length assumed)
Technique: protein-binding microarray
Molecule type: double-stranded DNA, one strand shown
Sample: in vitro
Tested at: not given
Notes: k-mer, scored over probes, only values ≥0.25
Direction: higher = stronger binding
Target sequence (chain): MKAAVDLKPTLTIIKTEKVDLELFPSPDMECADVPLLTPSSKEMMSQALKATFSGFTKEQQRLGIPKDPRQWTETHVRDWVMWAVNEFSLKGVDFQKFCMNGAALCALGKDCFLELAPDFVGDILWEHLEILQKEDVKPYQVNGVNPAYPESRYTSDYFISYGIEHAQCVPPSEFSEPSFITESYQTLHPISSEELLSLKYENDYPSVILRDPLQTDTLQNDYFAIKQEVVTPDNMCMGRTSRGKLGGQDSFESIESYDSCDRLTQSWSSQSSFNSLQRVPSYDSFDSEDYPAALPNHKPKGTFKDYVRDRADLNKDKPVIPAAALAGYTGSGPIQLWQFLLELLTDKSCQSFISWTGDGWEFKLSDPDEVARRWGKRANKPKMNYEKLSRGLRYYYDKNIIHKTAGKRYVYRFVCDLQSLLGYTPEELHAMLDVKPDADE
Oligonucleotide | E-score
AACAATAA | 0.264
CCGGATGA | 0.285
CGCCCGCC | 0.318
GTAGAATA | 0.271
CCGCCCCA | 0.417
CATCCGCC | 0.304
ATCCGGTG | 0.418
CCGGACGC | 0.272

Set 2
Target: RNA binding protein fox-1 homolog 2, RRM domain, GST-SBP tag (RBFOX2, Homo sapiens, UniProt O43251-10, residues 100-194)
Technique: RNA Bind-n-Seq
Molecule type: RNA
Sample: in vitro
Tested at: 365 nM
Notes: natural RNA segment, single round, ends assumed
Relative to: no-protein control
Direction: higher = stronger binding
Construct (chain): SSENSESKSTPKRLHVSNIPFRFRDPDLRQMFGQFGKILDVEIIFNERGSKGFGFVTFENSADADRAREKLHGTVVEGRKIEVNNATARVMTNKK
Oligonucleotide | RBNS enrichment (R)
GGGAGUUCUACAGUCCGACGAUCGCGGUUUUGAGCUUUCUAUAAGCUAUAGCUUUGUUUAUUUCACCCGUUCACUUACUGUAUAAUUUAAAAUCAUUUAUGUAGCUGAGACACUUCUGUAUUUCAAUCAUAUCUGGAAUUCUCGGGUGCCAA | 0.574
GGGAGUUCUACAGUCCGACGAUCAGCCCUAGGGGCGUGUCAGCCGCACCUCUGGGACGGGCCCUUCCUUGCGGUGCUGCCGUCCUUUUGGGUUCUUGAUUUCUGGAUACAUGUAGCUUUGCCAGAUAUGUACUUGGAAUUCUCGGGUGCCAA | 0.425
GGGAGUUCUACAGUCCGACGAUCCUGGCCUGUCCUCUAAGUCAAGUUUAGGAAAACAAGGAUAAGAUUCUGUCAUAGGCAUAGAGAGUUGCACAUAAAAAAUACCGAAGAAAACCCAAAAUUCAAUCAACAAUUGGAAUUCUCGGGUGCCAA | 0.444
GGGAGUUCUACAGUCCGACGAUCCAAGCUAUGUCUGGGCUGGUAGUCCCGCCCAUGUGAGGGGCUCUGUUUGCCUUCGCAGCACCCAGCAUCCAAGGACGGACUUCAGGGGACACGUGUAGUGUGUUAAGAUGUGGAAUUCUCGGGUGCCAA | 1.46
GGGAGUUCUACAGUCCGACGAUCACAUGGGGGGGCCCCUGGGCCUGGGGUGCCCUCCCGAUCUCCUCGUCCCGUAUUUCUCCAUCUCCAGUUCUGGACAGUGCAGGUUGCCAAGAAAAGGGACCUAGCUUAGCUGGAAUUCUCGGGUGCCAA | 0.605
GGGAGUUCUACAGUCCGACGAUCAAGUCCACUGUCAACAUUAUCAGCUCUCCUCAUUUCGAGCUAUCUGCUAGUCACAGCUGAAUAGCUUUGAGGAAGGAGGUGUGGCCCCCUCACACCCAGACACCCAGACAUGGAAUUCUCGGGUGCCAA | 0.218
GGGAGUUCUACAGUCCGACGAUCAAUAUAAUAUAUAUAAAUAUGCUACAUAUAUAUUUAUAAAAUUUCUAGUGGGAGUUCUAUAUAAAUGUUUCUUUGGUAUUCUUCAGCCUGUGAUUUAAAGUUUUACAAAAUGGAAUUCUCGGGUGCCAA | 2.24
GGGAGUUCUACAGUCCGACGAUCCUUCCUCUAGAAUGUUCAUUUUAUGAGAUCGCUAUCUGUAAGUCCAGUUGGAUUACAGGAAUACUUGAAAGUUACUUUCUACCACUAUUAGAAAAUAUGAAGUCGCAUGCUGGAAUUCUCGGGUGCCAA | 1.6

Set 3
Target: Interferon regulatory factor 7, full length, phosphomimetic (IRF7, Homo sapiens, UniProt Q92985, residues 1-503, S471D/S472D/S475D/S476D/S477D/S483D/S484D/S487D)
Sequence of UniProt Q92985 (whole entry, unmodified, looked up): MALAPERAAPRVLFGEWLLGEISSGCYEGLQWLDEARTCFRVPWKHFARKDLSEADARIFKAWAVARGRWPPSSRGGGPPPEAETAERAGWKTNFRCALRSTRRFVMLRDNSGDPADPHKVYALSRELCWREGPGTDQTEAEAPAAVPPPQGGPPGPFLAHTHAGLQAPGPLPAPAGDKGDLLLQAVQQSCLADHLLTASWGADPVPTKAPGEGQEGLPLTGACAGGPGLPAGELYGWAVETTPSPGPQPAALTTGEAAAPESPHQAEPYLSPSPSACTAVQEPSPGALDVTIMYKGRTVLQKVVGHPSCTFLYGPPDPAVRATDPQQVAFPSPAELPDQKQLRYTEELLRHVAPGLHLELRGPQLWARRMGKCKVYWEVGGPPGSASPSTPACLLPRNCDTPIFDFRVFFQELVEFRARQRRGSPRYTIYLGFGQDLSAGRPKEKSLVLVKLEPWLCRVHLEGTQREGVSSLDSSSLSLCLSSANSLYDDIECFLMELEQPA
Technique: protein-binding microarray
Molecule type: double-stranded DNA, one strand shown
Sample: in vitro
Tested at: 2200 nM top
Notes: 60-bp whole probe
With: salmon DNA 0.4 mg/ml
Relative to: random background probes
Direction: higher = stronger binding
Shared flanks, not repeated: GCCTAGCAC … GTCTTGATTCGCTTGACGCTGCTG
Oligonucleotide | fitted relative affinity
GACGCACTGAGTATCGAGACGTGCTAG | 0.191 z-score
TTAGGTATCCTTATCCTTTTGTGCTAG | 0.999 z-score
GACGGTTTCGGACTAGGGACGTGCTAG | 3.35 z-score
TTAGATTTCGGGTTTCGGTTAGTGCTA | 7.17 z-score
TTAGGACTGCTTTTCCTATAGTGCTAG | 0.805 z-score
TCACGTCTCCACCTGGGACTGTGCTAG | 0.66 z-score
TTAGGACTGAGACTGGGTTAGTGCTAG | -0.513 z-score
TAAGGACTGGGTCTCGGTTAGTGCTAG | -0.0325 z-score
GTGAGTCCCACATCTCTGTCCGTGCTA | 1.29 z-score

Other studies, line by line
Substance | target | test | test system | setting | how to read | quantity | value
PhoQ, residues 284 288 289 292 302 303 SLSLLA | PhoP, residues 12 14 15 18 19 NMSFL (Escherichia coli, UniProt P23836) | Sort-seq, refers to: YFP reporter | E. coli | PhoQ-PhoP variant library, with: 10 µM Mg2+ | relative to: high Mg2+ state, higher = stronger signaling | fold induction | 2.23

A few entries again (set 3):
Oligonucleotide | fitted relative affinity
GACGCACTGAGTATCGAGACGTGCTAG | 0.191 z-score
TTAGGTATCCTTATCCTTTTGTGCTAG | 0.999 z-score
GTGAGTCCCACATCTCTGTCCGTGCTA | 1.29 z-score
